Experimental data from different studies.
Numbers after ± are the reported error.
Sctr: Sctr (Rattus norvegicus, UniProt P23811)
Chain of UniProt P23811 (whole entry, looked up): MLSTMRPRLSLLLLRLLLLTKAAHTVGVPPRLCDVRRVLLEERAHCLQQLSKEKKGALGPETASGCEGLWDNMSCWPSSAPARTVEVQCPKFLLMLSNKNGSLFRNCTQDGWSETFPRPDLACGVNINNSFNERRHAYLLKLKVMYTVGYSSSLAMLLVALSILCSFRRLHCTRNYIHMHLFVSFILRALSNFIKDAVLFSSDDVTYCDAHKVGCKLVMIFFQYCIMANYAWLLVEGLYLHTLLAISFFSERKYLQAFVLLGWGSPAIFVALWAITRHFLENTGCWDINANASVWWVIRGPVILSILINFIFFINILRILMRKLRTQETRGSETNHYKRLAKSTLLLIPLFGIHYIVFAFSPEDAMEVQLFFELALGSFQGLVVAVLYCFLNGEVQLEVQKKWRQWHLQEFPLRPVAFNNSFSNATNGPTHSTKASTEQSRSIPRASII
Chain of UniProt P32241 (whole entry, looked up): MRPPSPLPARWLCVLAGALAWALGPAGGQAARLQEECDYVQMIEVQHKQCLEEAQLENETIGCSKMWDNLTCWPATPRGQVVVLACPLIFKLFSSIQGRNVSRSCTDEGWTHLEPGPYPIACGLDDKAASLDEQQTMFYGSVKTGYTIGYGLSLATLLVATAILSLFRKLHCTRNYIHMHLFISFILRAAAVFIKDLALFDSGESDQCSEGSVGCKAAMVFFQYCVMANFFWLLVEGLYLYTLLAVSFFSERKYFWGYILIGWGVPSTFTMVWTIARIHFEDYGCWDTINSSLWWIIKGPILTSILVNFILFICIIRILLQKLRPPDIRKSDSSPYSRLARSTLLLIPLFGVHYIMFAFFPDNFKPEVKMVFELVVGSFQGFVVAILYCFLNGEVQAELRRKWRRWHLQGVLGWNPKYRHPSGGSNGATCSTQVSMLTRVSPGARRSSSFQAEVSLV
Chain of UniProt P20236 (whole entry, looked up): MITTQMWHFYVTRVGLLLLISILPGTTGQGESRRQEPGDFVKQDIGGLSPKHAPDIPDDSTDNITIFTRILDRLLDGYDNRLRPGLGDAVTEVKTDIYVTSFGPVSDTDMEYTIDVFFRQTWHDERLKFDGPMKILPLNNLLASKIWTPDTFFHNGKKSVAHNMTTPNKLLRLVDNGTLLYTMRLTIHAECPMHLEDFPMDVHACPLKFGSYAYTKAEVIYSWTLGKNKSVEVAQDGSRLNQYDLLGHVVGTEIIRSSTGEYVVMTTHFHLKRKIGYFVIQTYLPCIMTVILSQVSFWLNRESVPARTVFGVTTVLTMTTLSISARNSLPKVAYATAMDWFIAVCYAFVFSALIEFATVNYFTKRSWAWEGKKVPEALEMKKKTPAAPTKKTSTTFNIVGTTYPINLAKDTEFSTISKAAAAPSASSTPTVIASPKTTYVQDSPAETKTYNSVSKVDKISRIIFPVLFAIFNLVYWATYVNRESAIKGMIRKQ
Chain of UniProt P43116 (whole entry, looked up): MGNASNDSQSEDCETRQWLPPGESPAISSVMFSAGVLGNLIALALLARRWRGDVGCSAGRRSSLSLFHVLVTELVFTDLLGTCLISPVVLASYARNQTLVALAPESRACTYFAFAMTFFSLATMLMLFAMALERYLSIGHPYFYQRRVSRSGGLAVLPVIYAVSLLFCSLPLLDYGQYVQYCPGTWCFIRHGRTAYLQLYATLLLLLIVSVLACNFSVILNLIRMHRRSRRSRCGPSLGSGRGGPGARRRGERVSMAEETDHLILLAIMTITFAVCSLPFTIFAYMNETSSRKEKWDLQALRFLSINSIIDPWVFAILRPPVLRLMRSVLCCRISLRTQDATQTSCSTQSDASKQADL
Chain of UniProt P30550 (whole entry, looked up): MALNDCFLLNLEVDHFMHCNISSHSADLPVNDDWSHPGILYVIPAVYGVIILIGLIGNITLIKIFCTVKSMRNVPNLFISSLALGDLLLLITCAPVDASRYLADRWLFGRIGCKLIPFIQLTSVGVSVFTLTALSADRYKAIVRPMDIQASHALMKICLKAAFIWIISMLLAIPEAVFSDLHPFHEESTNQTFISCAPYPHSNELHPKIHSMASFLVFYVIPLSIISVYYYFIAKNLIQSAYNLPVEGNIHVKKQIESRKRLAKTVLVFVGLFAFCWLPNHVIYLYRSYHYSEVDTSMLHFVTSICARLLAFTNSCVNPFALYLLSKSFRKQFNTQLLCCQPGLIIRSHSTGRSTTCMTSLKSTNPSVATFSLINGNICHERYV
Chain of UniProt P63138 (whole entry, looked up): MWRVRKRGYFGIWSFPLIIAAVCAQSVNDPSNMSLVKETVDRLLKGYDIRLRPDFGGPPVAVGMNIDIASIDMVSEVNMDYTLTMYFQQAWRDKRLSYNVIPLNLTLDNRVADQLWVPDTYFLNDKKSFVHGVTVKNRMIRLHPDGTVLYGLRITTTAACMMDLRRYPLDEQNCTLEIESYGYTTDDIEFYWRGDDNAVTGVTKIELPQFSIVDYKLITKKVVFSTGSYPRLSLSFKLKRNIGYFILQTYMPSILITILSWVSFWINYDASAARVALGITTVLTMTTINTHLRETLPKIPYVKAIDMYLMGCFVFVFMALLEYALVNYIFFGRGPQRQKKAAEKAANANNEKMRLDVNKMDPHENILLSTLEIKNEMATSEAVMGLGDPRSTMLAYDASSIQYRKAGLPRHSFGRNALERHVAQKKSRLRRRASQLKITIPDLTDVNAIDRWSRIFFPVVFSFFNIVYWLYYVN
Chain of UniProt Q60755 (whole entry, looked up): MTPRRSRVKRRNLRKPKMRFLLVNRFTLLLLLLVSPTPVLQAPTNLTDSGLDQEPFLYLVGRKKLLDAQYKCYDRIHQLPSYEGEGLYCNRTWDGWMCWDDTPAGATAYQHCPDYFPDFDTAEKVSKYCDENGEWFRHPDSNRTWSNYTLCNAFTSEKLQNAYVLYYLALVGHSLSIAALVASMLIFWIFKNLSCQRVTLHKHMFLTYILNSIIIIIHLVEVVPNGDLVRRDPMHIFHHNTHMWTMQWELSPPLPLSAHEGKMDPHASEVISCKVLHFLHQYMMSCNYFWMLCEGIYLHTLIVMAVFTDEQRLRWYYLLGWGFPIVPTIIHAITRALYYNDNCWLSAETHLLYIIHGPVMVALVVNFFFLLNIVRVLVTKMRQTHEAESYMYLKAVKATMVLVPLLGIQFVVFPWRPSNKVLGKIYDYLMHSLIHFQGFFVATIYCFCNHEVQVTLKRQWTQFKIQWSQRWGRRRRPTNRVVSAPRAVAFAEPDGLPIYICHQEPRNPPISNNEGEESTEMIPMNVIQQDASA
Chain of UniProt O95838 (whole entry, looked up): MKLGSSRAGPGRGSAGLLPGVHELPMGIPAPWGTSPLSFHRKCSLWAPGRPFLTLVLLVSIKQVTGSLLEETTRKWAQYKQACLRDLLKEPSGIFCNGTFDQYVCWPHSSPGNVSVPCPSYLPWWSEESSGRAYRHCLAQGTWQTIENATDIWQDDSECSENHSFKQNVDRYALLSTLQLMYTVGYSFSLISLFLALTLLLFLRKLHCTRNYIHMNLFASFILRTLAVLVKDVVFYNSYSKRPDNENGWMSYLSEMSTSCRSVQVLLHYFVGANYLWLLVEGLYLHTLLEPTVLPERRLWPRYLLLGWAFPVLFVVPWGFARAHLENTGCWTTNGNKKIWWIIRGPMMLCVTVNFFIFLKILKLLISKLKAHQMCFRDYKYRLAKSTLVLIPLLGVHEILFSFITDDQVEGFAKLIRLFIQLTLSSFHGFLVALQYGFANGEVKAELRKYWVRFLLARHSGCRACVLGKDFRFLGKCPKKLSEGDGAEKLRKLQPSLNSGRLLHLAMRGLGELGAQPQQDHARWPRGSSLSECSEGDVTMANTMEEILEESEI
Chain of UniProt O15552 (whole entry, looked up): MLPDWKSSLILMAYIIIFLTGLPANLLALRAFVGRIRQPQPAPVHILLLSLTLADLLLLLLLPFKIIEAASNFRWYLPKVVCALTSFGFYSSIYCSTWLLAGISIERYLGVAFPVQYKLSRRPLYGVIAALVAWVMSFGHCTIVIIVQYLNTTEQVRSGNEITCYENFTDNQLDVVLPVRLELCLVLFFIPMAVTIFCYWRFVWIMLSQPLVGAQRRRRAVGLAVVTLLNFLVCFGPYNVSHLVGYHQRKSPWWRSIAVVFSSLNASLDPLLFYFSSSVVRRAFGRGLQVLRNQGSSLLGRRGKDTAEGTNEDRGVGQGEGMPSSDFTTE
Chain of UniProt P02699 (whole entry, looked up): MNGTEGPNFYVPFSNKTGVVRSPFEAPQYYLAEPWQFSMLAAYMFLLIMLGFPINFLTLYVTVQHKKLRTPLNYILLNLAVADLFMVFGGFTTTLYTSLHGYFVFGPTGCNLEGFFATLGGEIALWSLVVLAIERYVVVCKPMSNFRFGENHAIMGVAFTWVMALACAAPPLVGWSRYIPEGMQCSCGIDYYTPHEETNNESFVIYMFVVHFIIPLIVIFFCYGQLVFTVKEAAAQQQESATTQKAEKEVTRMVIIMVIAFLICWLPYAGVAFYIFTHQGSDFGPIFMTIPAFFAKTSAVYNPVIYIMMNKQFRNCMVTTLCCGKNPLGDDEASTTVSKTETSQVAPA

CC1=C(/C=C/C(C)=C\C=C\C(C)=C\C=O)C(C)(C)CCC1 — EC50 (Rhodopsin (RHO, Bos taurus, UniProt P02699); binding, fluorescence; cell membranes): 124 nM
CC(C)C[C@H](NC(=O)CNC(=O)[C@H](C)NC(=O)[C@H](CC(C)C)NC(=O)[C@H](CCCNC(=N)N)NC(=O)[C@H](Cc1cnc[nH]1)NC(=O)[C@@H](NC(=O)[C@@H](NC(=O)[C@@H]1CSSC[C@H](NC(=O)[C@H](C)N)C(=O)N[C@@H](CC(=O)O)C(=O)N[C@@H]([C@@H](C)O)C(=O)N[C@@H](C)C(=O)N[C@@H]([C@@H](C)O)C(=O)N1)C(C)C)[C@@H](C)O)C(=O)N[C@@H](CC(C)C)C(=O)N[C@@H](CO)C(=O)N[C@@H](CCCNC(=N)N)C(=O)N[C@@H](CO)C(=O)NCC(=O)NCC(=O)N[C@H](C(=O)N[C@H](C(=O)N[C@@H](CCCCN)C(=O)N[C@@H](CC(N)=O)C(=O)N[C@@H](CC(N)=O)C(=O)N[C@@H](Cc1ccccc1)C(=O)N[C@H](C(=O)N1CCC[C@H]1C(=O)N[C@H](C(=O)N[C@@H](CC(N)=O)C(=O)N[C@H](C(=O)NCC(=O)N[C@@H](CO)C(=O)N[C@@H](CCCCN)C(=O)N[C@@H](C)C(=O)N[C@@H](Cc1ccccc1)C(N)=O)C(C)C)[C@@H](C)O)C(C)C)C(C)C)C(C)C — EC50 (Calcitonin receptor (Calcr, Mus musculus, UniProt Q60755); cAMP production, agonist; COS-7 transfected with mouse CTR; 15 min, 37 °C, together with: 1 mM IBMX): 28.8 nM
CC(C)CN(CC(C)C)C(=O)/C=C/C=C/c1ccc2c(c1)OCO2 — EC50 (Gabra3/Gabrb2 (Rattus norvegicus, UniProt P20236+P63138); GABA current potentiation, positive modulator, two-electrode voltage clamp; Xenopus oocytes expressing α3β2; together with: GABA EC3-7): 22200 ± 12100 nM
O=C(O)/C=C/c1cccc(NC(=O)c2cc(-c3ccccc3)ccc2F)c1 — EC50 (PTGER2 (Homo sapiens, UniProt P43116); calcium signal, agonist, fluorescence): 79.4 nM
CC(C)C[C@H](NC(=O)CNC(=O)[C@H](CCC(N)=O)NC(=O)[C@H](CC(C)C)NC(=O)[C@H](CC(C)C)NC(=O)[C@H](CCCNC(=N)N)NC(=O)[C@H](CCC(N)=O)NC(=O)[C@H](CC(C)C)NC(=O)[C@H](CCCNC(=N)N)NC(=O)[C@H](C)NC(=O)[C@H](CO)NC(=O)[C@H](CC(=O)O)NC(=O)[C@H](CCC(N)=O)NC(=O)[C@H](CC(C)C)NC(=O)[C@H](CCCNC(=N)N)NC(=O)[C@H](CO)NC(=O)[C@H](CC(C)C)NC(=O)[C@H](CCC(=O)O)NC(=O)[C@H](CO)NC(=O)[C@@H](NC(=O)[C@H](Cc1ccccc1)NC(=O)[C@H](C)NC(=O)CNC(=O)[C@H](CC(=O)O)NC(=O)[C@H](CO)NC(=O)[C@@H](N)Cc1c[nH]cn1)[C@@H](C)O)C(=O)N[C@H](C(N)=O)C(C)C — EC50 (Sctr; cAMP production, agonist; CHO-SecR; 30 min, 37 °C, together with: 1 mM IBMX): 0.2 ± 0.05 nM
CC(C)C[C@H](NC(=O)[C@H](CC(C)C)NC(=O)[C@H](Cc1c[nH]cn1)NC(=O)[C@@H](C)NC(=O)[C@@H](NC(=O)[C@H](C)NC(=O)[C@H](Cc1c[nH]c2ccccc12)NC(=O)[C@H](CCC(N)=O)NC(=O)[C@H](N)Cc1ccccc1)C(C)C)C(N)=O — EC50 (GRPR (Homo sapiens, UniProt P30550); inositol phosphate generation, agonist; BALB/3T3 transfected with human GRPR; 45 min, 37 °C; reference: 1 µM GRP): 3.02 ± 0.1 nM
CC(C)C[C@H](NC(=O)CNC(=O)[C@H](CCC(N)=O)NC(=O)[C@H](CC(C)C)NC(=O)[C@H](CC(C)C)NC(=O)[C@H](CCCNC(=N)N)NC(=O)[C@H](CCC(N)=O)NC(=O)[C@H](CC(C)C)NC(=O)[C@H](CCCNC(=N)N)NC(=O)[C@H](C)NC(=O)[C@H](CO)NC(=O)[C@H](CC(=O)O)NC(=O)[C@H](CCC(N)=O)NC(=O)[C@H](CC(C)C)NC(=O)[C@H](CCCNC(=N)N)NC(=O)[C@H](CO)NC(=O)[C@H](CC(C)C)NC(=O)[C@H](CCC(=O)O)NC(=O)[C@H](CO)NC(=O)[C@H](C)NC(=O)[C@H](Cc1ccccc1)NC(=O)[C@@H](NC(=O)CNC(=O)[C@H](CC(=O)O)NC(=O)[C@H](CO)NC(=O)[C@@H](N)Cc1c[nH]cn1)[C@@H](C)O)C(=O)N[C@H](C(N)=O)C(C)C — EC50 (Sctr; cAMP production, agonist; CHO-SecR; 30 min, 37 °C, together with: 1 mM IBMX): 9 ± 1.5 nM
CC[C@H](C)[C@H](NC(=O)CNC(=O)C1CCN(C(=O)[C@H](CO)NC(=O)[C@@H](N)Cc2c[nH]cn2)CC1)C(=O)N[C@@H](Cc1ccccc1)C(=O)N[C@H](C(=O)N[C@@H](CC(=O)O)C(=O)N[C@@H](CO)C(=O)N[C@@H](Cc1ccc(O)cc1)C(=O)N[C@@H](CO)C(=O)N[C@@H](CCCNC(=N)N)C(=O)N[C@@H](Cc1ccc(O)cc1)C(=O)N[C@@H](CCCNC(=N)N)C(=O)N[C@@H](CCCCN)C(=O)NC(C)(C)C(=O)N[C@@H](C)C(=O)N[C@@H](C)C(=O)N[C@H](C(=O)N[C@@H](CCCCN)C(=O)N[C@@H](CCCCN)C(=O)N[C@@H](Cc1ccc(O)cc1)C(=O)N[C@@H](CC(C)C)C(=O)N[C@@H](C)C(=O)N[C@@H](C)C(=O)N[C@H](C(=O)N[C@@H](CC(C)C)C(=O)NC(C)(C)C(=O)N[C@@H](CCCCN)C(=O)N[C@@H](CCCNC(=N)N)C(=O)N[C@@H](Cc1ccc(O)cc1)C(=O)N[C@@H](CCCCN)C(=O)N[C@@H](CCC(N)=O)C(=O)N[C@@H](CCCCN)C(=O)N[C@H](C(=O)N[C@@H](CCCCN)C(=O)N[C@@H](CC(N)=O)C(=O)N[C@H](CCCCN)C(N)=O)C(C)C)C(C)C)C(C)C)[C@@H](C)O — EC50 (VIPR1 (Homo sapiens, UniProt P32241); cAMP, agonist, radiometric): > 1000 nM
CC(=O)O — EC50 (FFAR2 (Homo sapiens, UniProt O15552); agonist): 37200 nM
CC[C@H](C)[C@H](NC(=O)[C@H](Cc1ccccc1)NC(=O)[C@H](CC(=O)O)NC(=O)[C@H](CCCNC(=N)N)NC(=O)[C@H](C)NC(=O)[C@H](C)NC(=O)[C@H](CC(C)C)NC(=O)[C@H](CC(N)=O)NC(=O)[C@H](CC(=O)O)NC(=O)[C@H](CC(C)C)NC(=O)[C@@H](NC(=O)[C@@H](NC(=O)[C@H](CC(N)=O)NC(=O)[C@H](CCSC)NC(=O)[C@H](CCC(=O)O)NC(=O)[C@H](CC(=O)O)NC(=O)[C@H](CO)NC(=O)[C@H](Cc1ccccc1)NC(=O)[C@H](CO)NC(=O)CCNC(=O)[C@H](CC(=O)O)NC(=O)[C@H](C)NC(=O)[C@@H](N)Cc1c[nH]cn1)[C@@H](C)O)[C@@H](C)CC)C(=O)N[C@@H](CC(N)=O)C(=O)N[C@@H](Cc1c[nH]c2ccccc12)C(=O)N[C@@H](CC(C)C)C(=O)N[C@H](C(=O)N[C@@H](CCC(N)=O)C(=O)N[C@H](C(=O)N[C@@H](CCCCN)C(=O)N[C@H](C(=O)N[C@H](C(=O)N[C@@H](CC(=O)O)C(N)=O)[C@@H](C)O)[C@@H](C)CC)[C@@H](C)O)[C@@H](C)CC — EC50 (GLP2R (Homo sapiens, UniProt O95838); agonist): 0.5 nM

For quick reference, copied from above:
CC[C@H](C)[C@H](NC(=O)CNC(=O)C1CCN(C(=O)[C@H](CO)NC(=O)[C@@H](N)Cc2c[nH]cn2)CC1)C(=O)N[C@@H](Cc1ccccc1)C(=O)N[C@H](C(=O)N[C@@H](CC(=O)O)C(=O)N[C@@H](CO)C(=O)N[C@@H](Cc1ccc(O)cc1)C(=O)N[C@@H](CO)C(=O)N[C@@H](CCCNC(=N)N)C(=O)N[C@@H](Cc1ccc(O)cc1)C(=O)N[C@@H](CCCNC(=N)N)C(=O)N[C@@H](CCCCN)C(=O)NC(C)(C)C(=O)N[C@@H](C)C(=O)N[C@@H](C)C(=O)N[C@H](C(=O)N[C@@H](CCCCN)C(=O)N[C@@H](CCCCN)C(=O)N[C@@H](Cc1ccc(O)cc1)C(=O)N[C@@H](CC(C)C)C(=O)N[C@@H](C)C(=O)N[C@@H](C)C(=O)N[C@H](C(=O)N[C@@H](CC(C)C)C(=O)NC(C)(C)C(=O)N[C@@H](CCCCN)C(=O)N[C@@H](CCCNC(=N)N)C(=O)N[C@@H](Cc1ccc(O)cc1)C(=O)N[C@@H](CCCCN)C(=O)N[C@@H](CCC(N)=O)C(=O)N[C@@H](CCCCN)C(=O)N[C@H](C(=O)N[C@@H](CCCCN)C(=O)N[C@@H](CC(N)=O)C(=O)N[C@H](CCCCN)C(N)=O)C(C)C)C(C)C)C(C)C)[C@@H](C)O — EC50 (VIPR1 (Homo sapiens, UniProt P32241); cAMP, agonist, radiometric): > 1000 nM
